Measurements collected from several papers.
Lines come from different studies, so protocols differ. “And” joins repeats or separate records; there may be more than shown. pIC50: −log10 of the molar value.
ALOX15: Polyunsaturated fatty acid lipoxygenase ALOX15 (ALOX15, Homo sapiens, UniProt P16050)
PARP2: Poly [ADP-ribose] polymerase 2 (PARP2, Homo sapiens, UniProt Q9UGN5)
Chain of UniProt Q9UGN5 (whole entry, looked up): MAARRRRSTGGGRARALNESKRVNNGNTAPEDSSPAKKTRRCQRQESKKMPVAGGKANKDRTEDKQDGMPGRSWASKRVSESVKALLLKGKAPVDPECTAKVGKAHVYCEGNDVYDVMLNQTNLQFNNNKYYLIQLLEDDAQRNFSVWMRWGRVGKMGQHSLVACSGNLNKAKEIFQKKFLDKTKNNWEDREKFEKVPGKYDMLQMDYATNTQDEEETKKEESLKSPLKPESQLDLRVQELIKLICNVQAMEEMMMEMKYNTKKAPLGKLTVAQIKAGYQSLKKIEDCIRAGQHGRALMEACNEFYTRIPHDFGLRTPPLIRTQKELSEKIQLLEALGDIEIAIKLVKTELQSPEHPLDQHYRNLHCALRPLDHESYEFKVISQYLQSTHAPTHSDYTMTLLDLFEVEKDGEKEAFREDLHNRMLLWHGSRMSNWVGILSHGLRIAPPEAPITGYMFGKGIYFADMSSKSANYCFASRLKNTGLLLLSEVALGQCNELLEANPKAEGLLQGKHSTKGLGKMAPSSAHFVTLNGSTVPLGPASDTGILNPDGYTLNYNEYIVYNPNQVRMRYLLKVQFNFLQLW
DRD3: D(3) dopamine receptor (DRD3, Homo sapiens, UniProt P35462)
Chain of UniProt P35462 (whole entry, looked up): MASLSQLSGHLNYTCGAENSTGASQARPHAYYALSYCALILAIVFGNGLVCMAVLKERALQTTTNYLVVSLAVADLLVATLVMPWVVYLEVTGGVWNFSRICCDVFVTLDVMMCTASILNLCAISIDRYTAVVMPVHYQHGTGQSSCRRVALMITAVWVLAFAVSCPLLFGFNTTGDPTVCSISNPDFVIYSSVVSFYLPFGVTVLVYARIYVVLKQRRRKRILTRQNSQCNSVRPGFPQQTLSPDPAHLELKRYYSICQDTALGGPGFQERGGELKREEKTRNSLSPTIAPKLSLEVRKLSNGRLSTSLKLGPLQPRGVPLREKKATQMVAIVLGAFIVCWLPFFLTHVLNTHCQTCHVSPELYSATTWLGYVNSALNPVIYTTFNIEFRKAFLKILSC
CES2: Cocaine esterase (CES2, Homo sapiens, UniProt O00748)
Chain of UniProt O00748 (whole entry, looked up): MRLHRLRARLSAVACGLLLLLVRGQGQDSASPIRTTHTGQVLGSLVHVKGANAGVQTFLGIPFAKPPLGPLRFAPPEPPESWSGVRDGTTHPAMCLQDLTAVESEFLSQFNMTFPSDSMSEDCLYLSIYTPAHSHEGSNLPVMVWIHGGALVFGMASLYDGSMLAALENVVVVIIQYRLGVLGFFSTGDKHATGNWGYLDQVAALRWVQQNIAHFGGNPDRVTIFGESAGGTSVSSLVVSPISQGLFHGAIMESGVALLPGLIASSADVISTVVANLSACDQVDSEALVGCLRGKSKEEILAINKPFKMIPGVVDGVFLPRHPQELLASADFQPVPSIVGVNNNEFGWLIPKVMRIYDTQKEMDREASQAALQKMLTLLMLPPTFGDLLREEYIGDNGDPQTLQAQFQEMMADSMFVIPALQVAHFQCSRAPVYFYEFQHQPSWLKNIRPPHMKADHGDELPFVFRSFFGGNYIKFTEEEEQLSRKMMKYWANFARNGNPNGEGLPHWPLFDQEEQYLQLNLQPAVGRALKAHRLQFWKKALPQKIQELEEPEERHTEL
HDAC1: Histone deacetylase 1 (HDAC1, Homo sapiens, UniProt Q13547)
Chain of UniProt Q13547 (whole entry, looked up): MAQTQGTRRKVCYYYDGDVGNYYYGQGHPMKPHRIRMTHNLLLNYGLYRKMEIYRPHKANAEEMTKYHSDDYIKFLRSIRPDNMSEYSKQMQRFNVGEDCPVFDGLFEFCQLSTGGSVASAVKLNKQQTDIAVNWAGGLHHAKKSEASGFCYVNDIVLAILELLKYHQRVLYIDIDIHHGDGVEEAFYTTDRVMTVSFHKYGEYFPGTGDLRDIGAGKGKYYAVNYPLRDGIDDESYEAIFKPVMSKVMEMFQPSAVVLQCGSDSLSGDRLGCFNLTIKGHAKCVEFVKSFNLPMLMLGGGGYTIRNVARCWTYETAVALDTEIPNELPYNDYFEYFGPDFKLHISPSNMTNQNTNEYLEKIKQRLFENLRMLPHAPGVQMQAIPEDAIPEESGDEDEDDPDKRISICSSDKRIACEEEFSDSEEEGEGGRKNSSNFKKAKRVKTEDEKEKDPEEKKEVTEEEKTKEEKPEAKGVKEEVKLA
HDAC8: Histone deacetylase 8 (HDAC8, Homo sapiens, UniProt Q9BY41)
Chain of UniProt Q9BY41 (whole entry, looked up): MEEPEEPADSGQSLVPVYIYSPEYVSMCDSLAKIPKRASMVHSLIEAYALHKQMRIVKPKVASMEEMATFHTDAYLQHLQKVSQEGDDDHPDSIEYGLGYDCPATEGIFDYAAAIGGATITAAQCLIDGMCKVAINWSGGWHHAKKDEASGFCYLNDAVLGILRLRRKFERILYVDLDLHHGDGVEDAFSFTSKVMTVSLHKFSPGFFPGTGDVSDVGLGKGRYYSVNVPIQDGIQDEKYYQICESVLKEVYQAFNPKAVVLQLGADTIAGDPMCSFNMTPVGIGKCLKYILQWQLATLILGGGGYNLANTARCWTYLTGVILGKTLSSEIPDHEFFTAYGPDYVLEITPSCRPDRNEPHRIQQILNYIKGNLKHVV
HDAC6: Protein deacetylase HDAC6 (HDAC6, Homo sapiens, UniProt Q9UBN7)
PIK3CB: Phosphatidylinositol 4,5-bisphosphate 3-kinase catalytic subunit beta isoform (PIK3CB, Homo sapiens, UniProt P42338)
Chain of UniProt P42338 (whole entry, looked up): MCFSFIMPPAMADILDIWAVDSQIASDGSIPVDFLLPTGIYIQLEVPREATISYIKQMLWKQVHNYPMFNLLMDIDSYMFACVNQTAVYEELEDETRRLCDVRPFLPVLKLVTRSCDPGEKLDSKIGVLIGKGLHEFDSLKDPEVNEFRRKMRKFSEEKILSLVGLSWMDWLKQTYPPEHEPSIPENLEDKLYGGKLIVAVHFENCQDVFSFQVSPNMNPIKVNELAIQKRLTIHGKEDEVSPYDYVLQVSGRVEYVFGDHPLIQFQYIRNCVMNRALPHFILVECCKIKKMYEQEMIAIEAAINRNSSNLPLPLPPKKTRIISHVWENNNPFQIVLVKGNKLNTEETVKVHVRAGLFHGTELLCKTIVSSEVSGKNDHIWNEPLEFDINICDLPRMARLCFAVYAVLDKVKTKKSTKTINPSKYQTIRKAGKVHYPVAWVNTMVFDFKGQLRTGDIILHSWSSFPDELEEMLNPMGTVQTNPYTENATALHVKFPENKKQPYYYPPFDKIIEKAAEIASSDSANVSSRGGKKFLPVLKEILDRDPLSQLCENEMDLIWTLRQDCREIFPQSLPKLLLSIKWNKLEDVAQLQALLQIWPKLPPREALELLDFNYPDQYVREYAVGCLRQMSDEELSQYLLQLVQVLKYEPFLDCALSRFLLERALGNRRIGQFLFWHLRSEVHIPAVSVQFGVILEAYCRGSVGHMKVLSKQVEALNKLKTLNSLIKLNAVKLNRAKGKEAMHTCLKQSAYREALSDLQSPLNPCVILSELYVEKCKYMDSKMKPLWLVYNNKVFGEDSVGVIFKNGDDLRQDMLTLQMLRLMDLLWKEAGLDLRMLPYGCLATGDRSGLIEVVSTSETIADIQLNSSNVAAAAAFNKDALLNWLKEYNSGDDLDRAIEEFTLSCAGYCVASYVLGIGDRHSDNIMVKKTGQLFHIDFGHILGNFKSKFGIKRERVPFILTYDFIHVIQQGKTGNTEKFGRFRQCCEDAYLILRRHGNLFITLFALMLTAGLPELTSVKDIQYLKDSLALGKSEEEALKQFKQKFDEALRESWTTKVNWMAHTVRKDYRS
CYP2D6: Cytochrome P450 2D6 (CYP2D6, Homo sapiens, UniProt P10635)
Chain of UniProt P10635 (whole entry, looked up): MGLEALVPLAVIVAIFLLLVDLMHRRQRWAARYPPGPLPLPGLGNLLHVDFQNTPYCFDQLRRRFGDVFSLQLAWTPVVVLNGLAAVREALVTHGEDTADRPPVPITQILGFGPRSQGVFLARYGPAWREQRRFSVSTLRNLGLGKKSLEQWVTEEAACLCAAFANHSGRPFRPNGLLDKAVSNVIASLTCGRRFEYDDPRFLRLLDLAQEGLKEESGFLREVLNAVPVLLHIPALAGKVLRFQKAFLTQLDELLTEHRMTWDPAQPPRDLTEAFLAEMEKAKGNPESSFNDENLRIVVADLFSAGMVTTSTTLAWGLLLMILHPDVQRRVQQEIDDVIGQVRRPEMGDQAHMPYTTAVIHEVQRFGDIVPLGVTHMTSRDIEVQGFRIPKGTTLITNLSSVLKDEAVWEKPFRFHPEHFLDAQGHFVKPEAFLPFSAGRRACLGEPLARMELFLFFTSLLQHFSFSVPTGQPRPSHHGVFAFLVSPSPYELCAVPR
Chain of UniProt P05177 (whole entry, looked up): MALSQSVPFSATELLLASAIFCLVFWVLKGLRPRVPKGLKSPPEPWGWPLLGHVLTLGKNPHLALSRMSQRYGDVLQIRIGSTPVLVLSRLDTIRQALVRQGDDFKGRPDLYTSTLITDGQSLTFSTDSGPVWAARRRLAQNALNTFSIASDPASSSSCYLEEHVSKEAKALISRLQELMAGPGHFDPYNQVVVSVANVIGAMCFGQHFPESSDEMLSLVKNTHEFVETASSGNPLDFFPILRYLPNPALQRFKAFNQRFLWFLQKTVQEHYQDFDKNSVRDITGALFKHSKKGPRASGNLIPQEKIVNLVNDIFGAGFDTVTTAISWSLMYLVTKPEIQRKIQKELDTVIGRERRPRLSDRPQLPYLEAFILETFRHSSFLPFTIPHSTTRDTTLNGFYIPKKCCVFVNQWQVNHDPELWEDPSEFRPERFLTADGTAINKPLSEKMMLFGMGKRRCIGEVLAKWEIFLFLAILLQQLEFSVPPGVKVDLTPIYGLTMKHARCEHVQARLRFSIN
Chain of UniProt P16390 (whole entry, looked up): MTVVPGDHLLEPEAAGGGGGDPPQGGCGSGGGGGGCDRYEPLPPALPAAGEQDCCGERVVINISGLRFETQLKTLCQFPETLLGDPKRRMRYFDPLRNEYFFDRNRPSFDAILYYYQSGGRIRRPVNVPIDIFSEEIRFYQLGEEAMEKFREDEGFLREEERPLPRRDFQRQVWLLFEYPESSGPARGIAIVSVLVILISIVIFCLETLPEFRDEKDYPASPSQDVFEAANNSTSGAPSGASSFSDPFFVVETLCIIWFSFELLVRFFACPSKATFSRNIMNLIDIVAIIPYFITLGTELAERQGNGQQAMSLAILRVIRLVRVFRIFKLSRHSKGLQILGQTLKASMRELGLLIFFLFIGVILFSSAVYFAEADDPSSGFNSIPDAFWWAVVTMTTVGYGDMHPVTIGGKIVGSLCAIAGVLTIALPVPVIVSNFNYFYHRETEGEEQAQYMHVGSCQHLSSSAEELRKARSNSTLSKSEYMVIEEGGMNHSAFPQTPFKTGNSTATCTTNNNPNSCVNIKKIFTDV

The pIC50 of `[C-]#[N+]CCCOc1ccc2c(-c3ccccc3C(=O)OCC)c3ccc(=O)cc-3oc2c1` is reported as 4.13 (ALOX15; enzyme activity, inhibitor, absorbance).
`O=c1[nH]c2c(nnn2C2CCCCC2)c2ccccc12` has a pIC50 of < 5.00 (PARP2; enzyme activity, inhibitor).
For `Cc1[nH]c(C)c(S(=O)(=O)Nc2cc(Cl)c(C(F)(F)F)c(Cl)c2)c1C(=O)N1CCC(F)(F)C1`, the pIC50 was 5.54 (DRD3; β-arrestin recruitment, antagonist).
With `Cc1ccccc1Cn1nnc2c3ccc(F)cc3c(=O)[nH]c21` the pIC50 was < 5.00 (PARP2; enzyme activity, inhibitor).
`COc1cc2c(cc1OC)C(=O)/C(=C/c1cccc(C)c1)C2` gave a pIC50 of 5.49 (CES2; enzyme activity, inhibitor, fluorescence; with preincubation).
`Cc1[nH]c(C)c(S(=O)(=O)Nc2ccc(C(F)(F)F)c(Cl)c2)c1C(=O)N1CCC(F)(F)C1` has a pIC50 of 5.60 (DRD3; β-arrestin recruitment, antagonist).
`O=C(NO)c1cccc(OS(=O)(=O)Oc2ccc3c(c2)OCO3)c1` has a pIC50 of 5.36 (HDAC1; enzyme activity, inhibitor, fluorescence).
With `CNC(=O)c1cc2c(Oc3ccc(NC(=O)C4(C(=O)Nc5ccc(F)cc5)CC4)cc3)ccnc2cc1OC` the pIC50 was 7.89 (Hepatocyte growth factor receptor (MET, Homo sapiens, UniProt P08581, M1250T); enzyme activity, inhibitor, radiometric).
`Cc1cc(OS(=O)(=O)Oc2ccc(C(F)(F)F)cc2)cc(C(=O)NO)c1` has a pIC50 of 5.35 (HDAC8; enzyme activity, inhibitor, fluorescence).
The pIC50 of `COc1cc2c(cc1OC)C(=O)/C(=C/c1ccccc1[N+](=O)[O-])C2` is reported as 6.06 (CES2; enzyme activity, inhibitor, fluorescence; with preincubation).
The pIC50 of `Cc1[nH]c(C)c(S(=O)(=O)Nc2ccc(C(F)(F)F)c(Cl)c2)c1C(=O)NCC(F)(F)F` is reported as 4.85 (DRD3; β-arrestin recruitment, antagonist).
With `NC(=O)c1ccc[n+]([C@@H]2O[C@H](COP(=O)([O-])OP(=O)(O)OC[C@H]3O[C@@H](n4cnc5c(N)ncnc54)[C@H](O)[C@@H]3O)[C@@H](O)[C@H]2O)c1` the pIC50 was 5.52 and 5.54 (Poly [ADP-ribose] polymerase 1 (PARP1, Homo sapiens, UniProt P09874); enzyme activity, inhibitor).
With `Cc1cc(C(C)(C)C)ccc1OS(=O)(=O)Oc1cccc(C(=O)NO)c1` the pIC50 was 5.45 (HDAC6; enzyme activity, inhibitor, fluorescence).
`Cc1[nH]c(C)c(S(=O)(=O)Nc2cc(Cl)c(C(F)(F)F)cc2Br)c1C(=O)N1CCC(F)(F)C1` has a pIC50 of 5.48 (DRD3; β-arrestin recruitment, antagonist).
For `CC(C)(C)c1ccc(Cn2nnc3c4ccc(F)cc4c(=O)[nH]c32)cc1`, the pIC50 was < 5.00 (PARP2; enzyme activity, inhibitor).
`Cc1cc(OS(=O)(=O)Oc2ccc3ccccc3c2)cc(C(=O)NO)c1` gave a pIC50 of 5.30 (HDAC8; enzyme activity, inhibitor, fluorescence).
For `O=c1ccc2c(OCCCCOc3ccc(O)cc3)c3ccoc3cc2o1`, the pIC50 was 8.15 and 8.19 (Potassium voltage-gated channel subfamily A member 3 (Kcna3, Mus musculus, UniProt P16390); ion current, inhibitor, patch clamp).
The pIC50 of `O=c1[nH]c2c(nnn2Cc2ccccc2C(F)(F)F)c2ccc(F)cc12` is reported as < 5.00 (PARP2; enzyme activity, inhibitor).
For `CC(C)c1cccc(C(C)C)c1N=C1C(=O)N(Cc2ccccc2)c2ccccc21`, the pIC50 was 7.09 (PIK3CB; enzyme activity, inhibitor, ADP detection).
With `COc1cc2c(cc1OC)C(=O)/C(=C/c1ccc(O)c(F)c1)C2` the pIC50 was < 4.00 (CES2; enzyme activity, inhibitor, fluorescence; with preincubation).
`Nc1ncnc2c1c(Oc1cc(C(F)(F)F)ccn1)nn2C1CC1` has a pIC50 of > 6.00 and 6.34 (Cytochrome P450 1A2 (CYP1A2, Homo sapiens, UniProt P05177); enzyme activity, inhibitor; human, liver microsomes; 10 min).
`Cc1cnc(NC(=O)C2=C(O)c3ccccc3S(=O)(=O)N2C)s1` gave a pIC50 of < 4.00 (CES2; enzyme activity, inhibitor, fluorescence; with preincubation).
`NC(=O)c1ccc(C(=O)NOCc2ccc(F)cc2)cc1` has a pIC50 of 5.08 (NAD-dependent protein deacylase sirtuin-6 (SIRT6, Homo sapiens, UniProt Q8N6T7); enzyme activity, inhibitor, fluorescence).
The pIC50 of `CCOC(=O)c1ccccc1-c1c2ccc(=O)cc-2oc2cc(O)ccc12` is reported as 4.62 (ALOX15; enzyme activity, inhibitor, absorbance).
The pIC50 of `Cc1ccc(NS(=O)(=O)c2c(C)[nH]c(C)c2C(=O)N2CCC(F)(F)C2)nc1Cl` is reported as 4.80 (DRD3; G protein activation, antagonist, BRET).
`O=C(/C=C/c1cccc(OS(=O)(=O)Oc2ccccc2)c1)NO` gave a pIC50 of 6.14 (HDAC1; enzyme activity, inhibitor, fluorescence).
For `Cc1nc(Nc2ccc3c(c2)/C(=C/c2ccccc2)C(=O)N3Cc2ccccc2)c2ccccc2n1`, the pIC50 was < 6.00 (PIK3CB; enzyme activity, inhibitor, ADP detection).
With `O=C(O)CCc1nc(-c2ccccc2)c(-c2ccccc2)o1` the pIC50 was < 4.00 (CES2; enzyme activity, inhibitor, fluorescence; with preincubation).
The pIC50 of `CC(C)C[C@H](NC(=O)c1cnccn1)C(=O)N[C@@H](C)C(=O)N[C@H](/C=C/S(C)(=O)=O)Cc1ccc(CN)cc1` is reported as < 5.00 (Proteasome subunit beta type-8 (PSMB8, Homo sapiens, UniProt P28062); enzyme activity, inhibitor; lysate).
The pIC50 of `O=C(NO)c1cc(F)cc(OS(=O)(=O)Oc2ccc(C(F)(F)F)cc2)c1` is reported as 6.25 (HDAC6; enzyme activity, inhibitor, fluorescence).
For `N#C[C@@]12C[C@@H]1[C@@H](n1cnc3c(N[C@@H](C4CCC4)C4CC4)nc(I)nc31)[C@H](O)[C@@H]2O`, the pIC50 was < 4.70 and 4.62 (CYP2D6; enzyme activity, inhibitor).
`COc1cc2c(cc1OC)C(=O)/C(=C/c1ccccc1C)C2` gave a pIC50 of 6.21 (CES2; enzyme activity, inhibitor, fluorescence; with preincubation).
With `Cc1nc(Nc2ccc3c(c2)/C(=C/c2ccccc2C)C(=O)N3)c2ccccc2n1` the pIC50 was 7.15 (PIK3CB; enzyme activity, inhibitor, ADP detection).
`C=CC(=O)Nc1cc(Nc2nccc(-c3cn(C)c4ccccc34)n2)c(OC)cc1N(C)CCN(C)C` has a pIC50 of 4.25 (CES2; enzyme activity, inhibitor, fluorescence; with preincubation).
The pIC50 of `Cc1cccc(N=C2C(=O)N(Cc3ccc(Br)cc3)c3ccccc32)c1` is reported as 7.04 (PIK3CB; enzyme activity, inhibitor, ADP detection).
With `FC(F)(F)Oc1ccc(Oc2ccnc(N3CCC(NC(=S)Nc4cccnc4)CC3)c2Cl)c(Cl)c1` the pIC50 was 7.05 (Lysophosphatidylserine lipase ABHD12 (Homo sapiens, UniProt Q8N2K0); enzyme activity, inhibitor; lysate).
For `COc1cc2c(cc1OC)C(=O)/C(=C/c1ccc(O)cc1F)C2`, the pIC50 was < 4.00 (CES2; enzyme activity, inhibitor, fluorescence; with preincubation).
With `Cc1[nH]c(C)c(S(=O)(=O)Nc2ccc(Cl)cc2C(F)(F)F)c1C(=O)N1CCC(F)(F)C1` the pIC50 was 4.74 (DRD3; β-arrestin recruitment, antagonist).
For `O=c1[nH]c2c(nnn2Cc2ccc(C(F)(F)F)cc2)c2ccc(F)cc12`, the pIC50 was < 5.00 (Protein mono-ADP-ribosyltransferase PARP10 (PARP10, Homo sapiens, UniProt Q53GL7); enzyme activity, inhibitor).
The pIC50 of `Cc1cc(OS(=O)(=O)Oc2ccccc2)cc(C(=O)NO)c1` is reported as 5.22 (HDAC8; enzyme activity, inhibitor, fluorescence).
The pIC50 of `O=C1Nc2ccccc2C1=Nc1ccccc1I` is reported as 6.90 (PIK3CB; enzyme activity, inhibitor, ADP detection).
`CC(C)N(CCC(=O)c1ccc2ccccc2c1)Cc1ccccc1` has a pIC50 of > 5.00 (Aldehyde dehydrogenase 1A1 (ALDH1A1, Homo sapiens, UniProt P00352); enzyme activity, inhibitor, fluorescence).
`O=C(NO)c1cncc(OS(=O)(=O)Oc2ccc3ccccc3c2)c1` gave a pIC50 of 6.37 (HDAC8; enzyme activity, inhibitor, fluorescence).
The pIC50 of `O=c1[nH]c2c(nnn2-c2ccccc2)c2ccc(F)cc12` is reported as < 5.00 (PARP2; enzyme activity, inhibitor).
With `Cc1ccc(CN2C(=O)C(=Nc3cccc(C)c3)c3ccccc32)cc1` the pIC50 was 7.52 (PIK3CB; enzyme activity, inhibitor, ADP detection).
With `Cc1[nH]cc(S(=O)(=O)Nc2ccc(C(F)(F)F)c(Cl)c2)c1C(=O)N1CCC(F)(F)C1` the pIC50 was 4.59 (DRD3; β-arrestin recruitment, antagonist).
For `CCCN1CCC(c2cccc(S(C)(=O)=O)c2)CC1`, the pIC50 was 4.43 (CYP2D6; enzyme activity, inhibitor; human, liver microsomes; pH 7.4).
`Cc1ccc(CNS(=O)(=O)c2c(C)[nH]c(C)c2C(=O)N2CCCC2)cc1Cl` gave a pIC50 of 4.25 (DRD3; β-arrestin recruitment, antagonist).
With `O=C1Nc2ccccc2/C1=N\c1ccc(Cl)cc1` the pIC50 was 6.11 (PIK3CB; enzyme activity, inhibitor, ADP detection).
For `Clc1ccc(C2(c3ccc(-c4ccnc5[nH]ccc45)cc3)CCNCC2)cc1`, the pIC50 was 9.00 (RAC-alpha serine/threonine-protein kinase (AKT1, Homo sapiens, UniProt P31749); enzyme activity, inhibitor, radiometric).
